# Published values gathered from unrelated publications.
# Each numbered part is a random draw from the data of one study; scales do not carry over between parts. Substitutions count along the parent as printed.

# Set 1 — target: CCND3, cyclin fold, Cln2 fusion (human); technique: yeast growth competition, sequencing; sample: yeast; notes: weak parent motif; baseline: not given; direction: higher = stronger binding
# Starting sequence: RB1 docking peptide (human); PKPLKKLRFDIEG
Change,normalised enrichment score
PKPLKYLRFDIEG [K6Y],0.0709
PKPNKKLRFDIEG [L4N],0.187
PKPYKKLRFDIEG [L4Y],0.214
PKPLMKLRFDIEG [K5M],0.0879
PKPQKKLRFDIEG [L4Q],0.0816
PKPLKKLRIDIEG [F9I],0.0444
PKPLVKLRFDIEG [K5V],0.112
PKPLKKLRFDHEG [I11H],0.147
PKPLKKLRFDIEH [G13H],0.127
PKPLKKLRDDIEG [F9D],0.149
PKPLKKLRFDFEG [I11F],0.168
PKPLKKLRFDIDG [E12D],0.104
PKPLKKLRFDAEG [I11A],0.163
PKPLKKLIFDIEG [R8I],0.147
VKPLKKLRFDIEG [P1V],0.147
PKPLKKLRNDIEG [F9N],0.22
PKPLKWLRFDIEG [K6W],0.114
PKPLKDLRFDIEG [K6D],0.168
PKPLKKLRFRIEG [D10R],0.159
PKPLKKCRFDIEG [L7C],0.168
YKPLKKLRFDIEG [P1Y],0.142

# Set 2 — technique: RNA Bind-n-Seq; form: RNA; sample: in vitro; tested at: 200 nM; notes: whole 134-nt RNA, ends assumed; with: 150 mM LiCl; baseline: input library; direction: higher = stronger binding; library: 7-deaza-guanosine replaces G
# Target: Fragile X messenger ribonucleoprotein 1, C-terminal low-complexity region (Fmr1, Mus musculus, UniProt P35922)
# Constant ends, left off below: GGGAGUUCUACAGUCCGACGAUC … UGGAAUUCUCGGGUGUCAAGG
Strand,log2 enrichment
UGGGCAAUGUGUCGGCUGCAUGCACGAGCCAGGAACUGCGCAGCCUCUUCGAGCGCCGCGGACGCGUCAUCGAGUGUGACGUGGUGAAAG,-1.06
UUUUCAUACCGAUCUAGAGUUCGUCCUUGCGUGGUUUAUGGUGGUGCCGAUAUUGGUCAGCAGAUUCGAGACUUGGAACGUGGAUGCCAU,-0.67
CCUGUGCUACACAUCGUAUGUACCGAAUCGGGUUUUUUUGGGAAAAAGGGAAAAAAAGGGAAAGUAUUAUGUUACGCCGUUCGGAUCUGC,-2.28
AAGUCCUGUGCUACACAUCGUAUGUACCGAAUCGGUGGUUUUUUUGGUUUUUUUGGAAAGUAUUAUGUUACGCCGUUCGGAUCUGCACUU,-1.46
ACCAUACAGGUGGGCAUCUUUGGGAAGUGGGGCAAGGGGGGGAUAGGGAGGGGGGUAACACUUUGGGAACAGGUGGUCCCAGGUCGUUUC,1.39
UGGCCCUGGUGGCAUGCGGUGAGGAAGAGGUGGCCUCAUGGAUCGUGGUGGUCCCGGUGGAAUGUUCAGAGGUGGCCGUGGUGGAGACAG,-0.37
UCCUGUGCUACACAUCGUAUGUACCGAAUCGGGGUUUUUGGUUUUUGGGGUUUUUGGGGAAAGUAUUAUGUUACGCCGUUCGGAUCUGCA,-1.25
CCUGUGCUACACAUCGUAUGUACCGAAUCGGUUUUUUUGGGUUUUUUUGGGGUUUUUUUGGAAAGUAUUAUGUUACGCCGUUCGGAUCUG,-0.149
CAAGUCCUGUGCUACACAUCGUAUGUACCGAAUCGGGGUGGGGAGGGGUUUGGGGAAAGUAUUAUGUUACGCCGUUCGGAUCUGCACUUC,-0.293
AGUCCUGUGCUACACAUCGUAUGUACCGAAUCGGGGAAAGGGGUUUUUGGGGAGGGGAAAGUAUUAUGUUACGCCGUUCGGAUCUGCACU,-0.651
GCAGGAAGUAAAAACAAAUGGAAAUGCUUCGGAUAGUGGCAGGGGUGGGGGUUGCUAAGGAAAGGGUGGGAUGGGUGUGGGUAAAGAGUU,1.92

# Set 3 — technique: DHFR PCA, deep sequencing; sample: yeast; with: (+)-ABA 0.032 µM; baseline: wild-type fitted maximum; direction: higher = stronger binding
# Target: ABI1, truncated, D143A, DHFR fusion (Arabidopsis thaliana)
# Notes: methotrexate growth selection, single substitutions
# Starting sequence: PYL1, truncated, DHFR fusion (Arabidopsis thaliana); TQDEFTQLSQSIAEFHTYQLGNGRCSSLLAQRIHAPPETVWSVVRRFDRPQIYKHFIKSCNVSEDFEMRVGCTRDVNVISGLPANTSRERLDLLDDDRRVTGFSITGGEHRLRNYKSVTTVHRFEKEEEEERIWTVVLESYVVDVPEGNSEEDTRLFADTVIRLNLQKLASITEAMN
Change,relative binding score
D97R,16%
S104R,2.23%
E4Y,10.8%
S63A,47.8%
V40F,-15%
R98T,1.8%
F47M,2.49%
V44W,-5.5%
F15P,-0.456%
D95G,-3.33%
D48C,-6.94%
P36M,7.4%

# Set 4 — target: JUN, bZIP domain (human); technique: DHFR protein complementation; sample: yeast; baseline: wild-type JUN-FOS pair; direction: higher = stronger binding
# Notes: single substitutions, most at no-binding floor
# Starting sequence: JUN, bZIP domain (human); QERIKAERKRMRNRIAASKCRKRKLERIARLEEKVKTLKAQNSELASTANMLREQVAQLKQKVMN; partner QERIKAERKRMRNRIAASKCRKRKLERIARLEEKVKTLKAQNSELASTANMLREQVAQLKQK
Change,binding fitness [natural log]
A57N,-0.192
A57W,-0.595
A49I,0.071
R30Q,-0.112
K36N,-0.36
E54W,-1.02
Q55F,-1.18
A57C,-0.566
A40N,-0.369
I28F,-1.01

# Set 5 — technique: RNA Bind-n-Seq; form: RNA; sample: in vitro; tested at: 365 nM; baseline: no-protein control; direction: higher = stronger binding
# Target: RNA binding protein fox-1 homolog 2, RRM domain, GST-SBP tag (RBFOX2, Homo sapiens, UniProt O43251-10, residues 100-194)
# Notes: natural RNA segment, single round, ends assumed
# Constant ends, left off below: GGGAGUUCUACAGUCCGACGAUC … UGGAAUUCUCGGGUGCCAA
# Residues (chain): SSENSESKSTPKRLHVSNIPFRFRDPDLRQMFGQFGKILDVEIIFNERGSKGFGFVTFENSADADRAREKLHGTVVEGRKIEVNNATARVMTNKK
Strand,RBNS enrichment (R)
CCUAUCAGGAAAAGUUUCUAGAAAGCCAACGAGGGUCAGUAGUUUAGUGUCAUUCCUGGAAUUAACUUAUCAUGCAUUUGCUUAGUUAAAGUCAAAAUUUAAUAUUGGUU,0.851
CUGUCUUUUUAGAGGAAAAGGACUCUGUAGAACAGAUAUUAUAUUUAUACUUUGUUCCUCCUGCCCAACAACUGUCAGUACUGAGAUCUGAAAUUAAAAUGACUUGUUUG,0.975
UUGGGUACUUUAUACAAAGAAAAUUCAGCCCUACCCUGCAUAAUUUGAAGACACAGCAGAAAGGGGGCUUAGGGAUGAGGUCCUGGUUUUUCUUGUAUAAAUAGGAGUCA,0.516
CCCACCCUCUCUGCAGCAAGGGGGCCCUCCUUGUCACUGACAUUUGCUAAACCGUGGCAAUUCAUCAACGGGAAACAUUAGUGAAUUGAAGGCAUUCCUUGUUUUUAACU,0.365
AUGCCUCGCUGGGGCUGAGACUUUUUUAAUCCUUGUGUAAAGAAGCGAGAUCGAGGCAGAGAAACGUAAUUUGUCCAUCACAUGGGGUUUGGAAAUAAAUAUAUUAUUUG,0.535
CUAAGUUGCCCUGACUGGCCUUCAGCUGGCCUUACCCACUUCUUCAGUUACCCUGAACAUGGGGAGUGCAUCACGAUAGGGUGUGGCUGACCUCCAUUGCUUACCUGCCU,0.359
AGUCAAUUUUGUACAAUUAGGUAUCUGACUUUACAAGUUUGUUAUCCUUUCUAAUUUUUACUGAACUGAAAGCACAAAGAAGACUACACAGAAAAUCUGGAAACAGUUGC,0.328
ACCCAAGGGGCCUCUCCAUGCCUUCUUAGGAAGCAGCUAUGAAUCCAUUGUCCUUGUAGUUUCUUCCCUCCUGUUCUCUGGUUAUAGCUGGUCCCAGGUCAGCGUGGGAG,0.371
AGAGCGCGGUACAGCUGGGCCCAGCCCUGGAGAACCUCUCUUGUCCCAAGGAGCUUCGUGAACUGGCAGAGGCUGAAGCGAUCCAGUUGGGCCUCUCUUGACUAUAGCAG,0.278
UGUACUUUCCAAACAAAUGAUACAACCCUGACCAAGCUAAAAGACGCUUGUUAAAGGCUAUUUUCUAUAUUUAUUGUUGGGAAAAGUCACUUUAAAGACUUGUGCUAUUU,0.447
ACUCAGCGGAAGGGGAACUUCUUCAUGGGUGGUUCAGAUGGUGGCUACACCAUCUGGUGAGGAACCAAGGCCACCUCUGUGCCGGGAAAGACAUCACAUACCUUCAGCAC,0.18
GGGUGCUCAAUUGCUGCUCACGUCUGCUGCAACCUGAAGCUUGCAUCUCAGCCAGCAGAUCUGCUCCCUUCUGGGACCCAGGCUUCAGUGUCACACGGUCCUUGGCUAUG,0.28

# Single results of other studies
Molecule,target,test,test system,setting,how to read,measurement,result
"PhoQ, residues 284 288 289 292 302 303 ASTSDA","PhoP, residues 12 14 15 18 19 VQALL (Escherichia coli, UniProt P23836)","Sort-seq, measured: YFP reporter",E. coli,"PhoQ-PhoP variant library, with: 10 µM Mg2+","baseline: high Mg2+ state, higher = stronger signaling",fold induction,11.3

# For quick reference, copied from above (set 4):
Change,binding fitness [natural log]
R30Q,-0.112
A57W,-0.595
A57C,-0.566
A40N,-0.369
I28F,-1.01
Q55F,-1.18
A49I,0.071
